Results gathered from unrelated publications.
Compare with care: the assays were run in different laboratories. ± gives the spread as reported.
B1: enzyme (Oryza sativa, UniProt A0A7G1K8F5); chain MADESWRAPAIVQELAAAGVEEPPSRYLLREKDRSDVKLVAAELPEPLPVVDLSRLDGAEEATKLRVALQNWGFFLLTNHGVEASLMDSVMNLSREFFNQPIERKQKFSNLIDGKNFQIQGYGTDRVVTQDQILDWSDRLHLRVEPKEEQDLAFWPDHPESFRDVLNKYASGTKRIRDDIIQAMAKLLELDEDYFLDRLNEAPAFARFNYYPPCPRPDLVFGIRPHSDGTLLTILLVDKDVSGLQVQRDGKWSNVEATPHTLLINLGDTMEVMCNGIFRSPVHRVVTNAEKERISLAMLYSVNDEKDIEPAAGLLDENRPARYRKVSVEEFRAGIFGKFSRGERYIDSLRI
B2: enzyme Y7F (Streptomyces parvus, UniProt A0A7K3RVR3); chain MYVPEQFRPRDASWTLELIRSNPLALLVTNGPQHPWATHVPVLFAEEPDGPEGPDGLDATGDDLVGRRLLGHLNLMNPHWEALAGAGHALLVFQGPGSYVSPTVYETAPAAPTWDFTSVHVHGALRLIDDPDDLRKIVQATVRAYEREVGTDWDMSESLEYFERLLPGVRGFEIKIESVDSMFKLSQEQLPETVTKVIDSFRRSDGGRRQELATMIERAASD
B3: enzyme Y105A (Streptomyces parvus, UniProt A0A7K3RVR3); chain MYVPEQYRPRDASWTLELIRSNPLALLVTNGPQHPWATHVPVLFAEEPDGPEGPDGLDATGDDLVGRRLLGHLNLMNPHWEALAGAGHALLVFQGPGSYVSPTVAETAPAAPTWDFTSVHVHGALRLIDDPDDLRKIVQATVRAYEREVGTDWDMSESLEYFERLLPGVRGFEIKIESVDSMFKLSQEQLPETVTKVIDSFRRSDGGRRQELATMIERAASD

CN[C@H](CC(C)C)C(=O)N[C@H]1C(=O)N[C@@H](CC(N)=O)C(=O)N[C@H]2C(=O)N[C@H]3C(=O)N[C@H](C(=O)N[C@H](C(=O)O)c4cc(O)cc(O)c4-c4cc3ccc4O)[C@H](O)c3ccc(c(Cl)c3)Oc3cc2cc(c3O[C@@H]2O[C@H](CO)[C@@H](O)[C@H](O)[C@H]2O[C@H]2C[C@](C)(NCc3ccc(OCc4cn(CC(=O)N[C@H](C(=O)N[C@@H](CCN)C(=O)N[C@H]5CCNC(=O)[C@H]([C@@H](C)O)NC(=O)[C@H](CCN)NC(=O)[C@H](CCN)NC(=O)[C@H](CC(C)C)NC(=O)[C@@H](CC(C)C)NC(=O)[C@H](CCN)NC5=O)[C@@H](C)O)nn4)c(OC)c3)[C@H](O)[C@H](C)O2)Oc2ccc(cc2Cl)[C@H]1O — hemolysis (sheep erythrocytes; 512 µg/mL, 37 °C; relative to: Triton X-100): < 5%
CC(C)C[C@@H]1NC(=O)[C@H](CC(=O)O)NC(=O)CNC(=O)[C@H](CCCNC(=N)N)NC(=O)[C@H](Cc2ccccc2)NC(=O)[C@H](CCCCNC(=O)CCc2cn(CCCNC(=O)CN3CCN(CC(=O)O)CCN(CC(=O)O)CCN(CC(=O)O)CC3)nn2)N(C)C(=O)[C@H]2CCCN2C(=O)[C@H](Cc2ccccc2)NC(=O)[C@H](C)NC1=O — tissue-to-tissue ratio (female CB17 SCID mice, tumour and heart; intravenous, dose not given, 90 min, 177Lu-labelled; relative to: tumour over heart): 5.6 ± 3.9
CC[C@H](C)[C@H](NC(=O)[C@H](CO)NC(=O)[C@H](Cc1ccc(O)cc1)NC(=O)[C@H](Cc1ccc(O)cc1)NC(=O)[C@H](CC(N)=O)NC(=O)CNC(=O)[C@H](CO)NC(=O)[C@H](Cc1ccc(O)cc1)NC(=O)[C@H](CO)NC(=O)[C@H](CO)NC(=O)[C@H](CC(N)=O)NC(=O)COCCOCCNC(=O)CN1CCN(CC(=O)O)CCN(CC(=O)O)CCN(CC(=O)O)CC1)C(=O)N[C@@H](CC(C)C)C(N)=O [copper-64 labelled] — tumour uptake (dynamic PET; mouse, tamoxifen-induced PDAC, tumor; intravenous, 0.1 µg/mouse, 6.5 min): 12.3 %ID/mL
CC(C)C[C@H](NC(=O)[C@@H](N)Cc1ccccc1)C(=O)N[C@@H](C)C(=O)N[C@H]1CSCc2cccc(n2)CSC[C@@H](C(=O)N[C@H](C(=O)NCC(=O)N[C@@H](CO)C(=O)N[C@@H](Cc2c[nH]c3ccccc23)C(=O)N[C@@H](CCCCNC(=O)CN2CCN(CC(=O)O)CCN(CC(=O)O)CCN(CC(=O)O)CC2)C(N)=O)[C@@H](C)O)NC(=O)[C@H](Cc2c[nH]cn2)NC(=O)[C@H]([C@@H](C)O)NC(=O)[C@H](CCC(=O)O)NC(=O)[C@@H]2CCCN2C1=O [gallium-68 labelled] — tumour uptake (PET/CT; C57BL/6J mice, B16-F10 tumour, tumour; intravenous, 3.7 MBq, 1 h): 4.63 ± 0.42 %ID/g
B1 (enzyme) — Km (CS(=O)(=O)c1ccc(C(=O)C2C(=O)CCCC2=O)c([N+](=O)[O-])c1; steady-state kinetics; pH 7.4, 30 °C): 14.8 µM
B2 (enzyme Y7F) — Km (N[C@@H](CCCNO)C(=O)O; steady-state kinetics; pH 8, 25 °C, with: heme): 480 µM
N=C(N)NCCC[C@@H]1NC(=O)[C@H](CCCCNC(=O)CCC(NC(=S)Nc2ccc(CC3CN(CC(=O)O)CCN(CC(=O)O)CCN(CC(=O)O)CCN3CC(=O)O)cc2)C(=O)NCCCC[C@@H]2NC(=O)[C@@H](Cc3ccc(O)cc3)NC(=O)[C@H](CC(=O)O)NC(=O)CNC(=O)[C@H](CCCNC(=N)N)NC2=O)NC(=O)[C@@H](Cc2ccc(O)cc2)NC(=O)[C@H](CC(=O)O)NC(=O)CNC1=O (stereo partly shown) [scandium-44 labelled] — tissue uptake (ex vivo γ-counting; female athymic nude mice, U-87 MG xenograft, muscle; intravenous, 4 h, with: cRGD 50 mg/kg blocking): 0.023 ± 0.003 %ID/g
CC(C)C[C@@H]1NC(=O)[C@H](CC(=O)O)NC(=O)CNC(=O)[C@H](CCCNC(=N)N)NC(=O)[C@H](Cc2ccccc2)NC(=O)[C@H](CCCCNC(=O)CCc2cn(CCCNC(=O)CCC(C(=O)O)N3CCN(CC(=O)O)CCN(CC(=O)O)CCN(CC(=O)O)CC3)nn2)N(C)C(=O)[C@H]2CCCN2C(=O)[C@H](Cc2ccccc2)NC(=O)[C@H](C)NC1=O (stereo partly shown) — tissue-to-tissue ratio (female CB17 SCID mice, tumour and heart; intravenous, dose not given, 90 min, 177Lu-labelled; relative to: tumour over heart): 10.5 ± 2.6
C[C@@H](O)[C@@H]1NC(=O)[C@@H](NC(=O)CCOCCOCCOCCOCCNC(=O)c2ccc(NN)nc2)CSSC[C@@H](C(=O)O)NC(=O)[C@H](Cc2c[nH]cn2)NC(=O)[C@H](CO)NC(=O)[C@H](Cc2ccccc2)NC(=O)[C@@H]2CCCN2C(=O)[C@H](CO)NC(=O)[C@@H]2CCCN2C1=O [technetium-99m labelled] — tissue uptake (mouse HCT-116 xenograft, large intestine; intravenous, 37 MBq, postmortem after imaging): 1.74 ± 0.74 %ID/g
B3 (enzyme Y105A) — Km (N[C@@H](CCCNO)C(=O)O; steady-state kinetics; pH 8, 25 °C, with: heme): 3220 µM

A few entries again:
CC[C@H](C)[C@H](NC(=O)[C@H](CO)NC(=O)[C@H](Cc1ccc(O)cc1)NC(=O)[C@H](Cc1ccc(O)cc1)NC(=O)[C@H](CC(N)=O)NC(=O)CNC(=O)[C@H](CO)NC(=O)[C@H](Cc1ccc(O)cc1)NC(=O)[C@H](CO)NC(=O)[C@H](CO)NC(=O)[C@H](CC(N)=O)NC(=O)COCCOCCNC(=O)CN1CCN(CC(=O)O)CCN(CC(=O)O)CCN(CC(=O)O)CC1)C(=O)N[C@@H](CC(C)C)C(N)=O [copper-64 labelled] — tumour uptake (dynamic PET; mouse, tamoxifen-induced PDAC, tumor; intravenous, 0.1 µg/mouse, 6.5 min): 12.3 %ID/mL
